Assay results of several laboratories.
Numbered parts are unrelated; each lists some results of a single study. Several values in a cell are separate wells, animals, samples, runs or records.
Sequence of UniProt Q9BYT3 (whole entry, looked up): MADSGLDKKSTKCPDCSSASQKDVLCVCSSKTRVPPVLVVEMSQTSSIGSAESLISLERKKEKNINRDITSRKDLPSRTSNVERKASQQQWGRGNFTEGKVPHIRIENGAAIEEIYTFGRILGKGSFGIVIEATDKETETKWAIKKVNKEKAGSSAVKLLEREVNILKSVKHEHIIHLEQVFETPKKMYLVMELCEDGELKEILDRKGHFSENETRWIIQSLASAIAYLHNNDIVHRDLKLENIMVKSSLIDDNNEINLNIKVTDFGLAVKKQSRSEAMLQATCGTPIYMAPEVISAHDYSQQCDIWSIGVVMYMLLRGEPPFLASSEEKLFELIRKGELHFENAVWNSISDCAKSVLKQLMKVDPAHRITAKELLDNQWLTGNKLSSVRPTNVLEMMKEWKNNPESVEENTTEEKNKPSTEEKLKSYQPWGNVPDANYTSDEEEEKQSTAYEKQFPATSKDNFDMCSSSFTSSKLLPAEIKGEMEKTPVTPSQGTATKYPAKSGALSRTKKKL
Sequence of UniProt Q9UHD2 (whole entry, looked up): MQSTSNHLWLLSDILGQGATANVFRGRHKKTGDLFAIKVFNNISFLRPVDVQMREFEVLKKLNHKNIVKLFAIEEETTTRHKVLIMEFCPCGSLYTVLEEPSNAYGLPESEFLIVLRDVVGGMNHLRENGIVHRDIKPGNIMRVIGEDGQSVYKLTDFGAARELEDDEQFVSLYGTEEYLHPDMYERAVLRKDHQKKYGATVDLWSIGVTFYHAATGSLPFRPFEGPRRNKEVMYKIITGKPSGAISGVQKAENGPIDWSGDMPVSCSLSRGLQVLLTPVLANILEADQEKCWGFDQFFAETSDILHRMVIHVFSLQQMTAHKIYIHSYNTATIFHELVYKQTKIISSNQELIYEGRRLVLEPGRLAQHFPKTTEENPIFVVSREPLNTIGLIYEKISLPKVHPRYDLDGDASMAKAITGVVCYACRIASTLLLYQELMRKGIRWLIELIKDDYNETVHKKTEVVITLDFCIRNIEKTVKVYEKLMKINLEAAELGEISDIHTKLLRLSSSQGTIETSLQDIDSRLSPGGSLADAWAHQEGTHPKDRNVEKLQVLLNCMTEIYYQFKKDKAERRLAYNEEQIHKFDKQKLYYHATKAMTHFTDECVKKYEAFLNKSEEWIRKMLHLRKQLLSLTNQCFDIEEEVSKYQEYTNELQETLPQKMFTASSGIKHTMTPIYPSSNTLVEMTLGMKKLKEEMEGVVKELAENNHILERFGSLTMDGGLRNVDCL
Sequence of UniProt Q8WTQ7 (whole entry, looked up): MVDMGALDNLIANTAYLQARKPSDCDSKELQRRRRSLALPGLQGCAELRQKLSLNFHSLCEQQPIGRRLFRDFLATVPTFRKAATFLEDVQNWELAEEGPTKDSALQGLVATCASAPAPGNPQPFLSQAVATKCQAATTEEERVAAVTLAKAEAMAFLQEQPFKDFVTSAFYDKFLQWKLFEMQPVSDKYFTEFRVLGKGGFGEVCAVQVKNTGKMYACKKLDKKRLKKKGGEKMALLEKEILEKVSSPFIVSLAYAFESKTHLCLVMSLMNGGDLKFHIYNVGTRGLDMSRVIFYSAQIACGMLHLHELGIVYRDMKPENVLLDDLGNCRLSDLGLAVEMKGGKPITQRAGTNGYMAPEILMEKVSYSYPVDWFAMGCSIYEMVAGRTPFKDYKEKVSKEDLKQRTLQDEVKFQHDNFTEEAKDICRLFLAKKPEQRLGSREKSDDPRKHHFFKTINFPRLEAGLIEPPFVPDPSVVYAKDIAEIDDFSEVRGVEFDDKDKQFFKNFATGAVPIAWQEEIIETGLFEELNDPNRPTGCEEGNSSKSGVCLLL
Sequence of UniProt P29597 (whole entry, looked up): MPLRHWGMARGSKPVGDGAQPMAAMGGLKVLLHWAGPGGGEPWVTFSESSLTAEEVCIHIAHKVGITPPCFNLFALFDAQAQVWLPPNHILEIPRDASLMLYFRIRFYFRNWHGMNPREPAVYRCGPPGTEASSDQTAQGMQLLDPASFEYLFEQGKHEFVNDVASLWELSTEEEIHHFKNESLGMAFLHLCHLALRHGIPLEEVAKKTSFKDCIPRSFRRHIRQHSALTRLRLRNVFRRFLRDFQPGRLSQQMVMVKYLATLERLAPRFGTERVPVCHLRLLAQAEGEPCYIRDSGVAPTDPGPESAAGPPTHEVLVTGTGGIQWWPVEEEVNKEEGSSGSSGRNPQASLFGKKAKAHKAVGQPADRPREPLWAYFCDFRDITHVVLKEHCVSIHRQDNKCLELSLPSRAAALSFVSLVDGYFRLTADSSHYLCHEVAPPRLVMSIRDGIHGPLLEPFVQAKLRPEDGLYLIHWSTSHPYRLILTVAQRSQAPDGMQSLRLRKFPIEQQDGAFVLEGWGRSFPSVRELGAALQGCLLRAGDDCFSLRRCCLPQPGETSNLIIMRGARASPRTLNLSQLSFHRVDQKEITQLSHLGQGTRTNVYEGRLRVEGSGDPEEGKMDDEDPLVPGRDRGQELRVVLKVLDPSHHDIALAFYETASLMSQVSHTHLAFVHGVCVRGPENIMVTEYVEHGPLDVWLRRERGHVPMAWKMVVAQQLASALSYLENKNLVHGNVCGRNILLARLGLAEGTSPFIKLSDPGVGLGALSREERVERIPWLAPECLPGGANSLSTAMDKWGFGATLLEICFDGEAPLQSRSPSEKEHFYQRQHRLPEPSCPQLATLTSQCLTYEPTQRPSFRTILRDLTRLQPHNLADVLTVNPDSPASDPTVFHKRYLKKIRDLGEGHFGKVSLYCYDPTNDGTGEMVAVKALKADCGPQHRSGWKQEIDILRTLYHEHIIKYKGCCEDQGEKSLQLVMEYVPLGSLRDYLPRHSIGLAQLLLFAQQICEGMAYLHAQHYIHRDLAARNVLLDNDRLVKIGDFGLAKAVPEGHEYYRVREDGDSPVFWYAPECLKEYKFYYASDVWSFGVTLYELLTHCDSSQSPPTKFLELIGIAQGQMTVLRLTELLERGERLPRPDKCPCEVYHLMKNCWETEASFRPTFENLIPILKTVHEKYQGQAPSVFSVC
Sequence of UniProt P29320 (whole entry, looked up): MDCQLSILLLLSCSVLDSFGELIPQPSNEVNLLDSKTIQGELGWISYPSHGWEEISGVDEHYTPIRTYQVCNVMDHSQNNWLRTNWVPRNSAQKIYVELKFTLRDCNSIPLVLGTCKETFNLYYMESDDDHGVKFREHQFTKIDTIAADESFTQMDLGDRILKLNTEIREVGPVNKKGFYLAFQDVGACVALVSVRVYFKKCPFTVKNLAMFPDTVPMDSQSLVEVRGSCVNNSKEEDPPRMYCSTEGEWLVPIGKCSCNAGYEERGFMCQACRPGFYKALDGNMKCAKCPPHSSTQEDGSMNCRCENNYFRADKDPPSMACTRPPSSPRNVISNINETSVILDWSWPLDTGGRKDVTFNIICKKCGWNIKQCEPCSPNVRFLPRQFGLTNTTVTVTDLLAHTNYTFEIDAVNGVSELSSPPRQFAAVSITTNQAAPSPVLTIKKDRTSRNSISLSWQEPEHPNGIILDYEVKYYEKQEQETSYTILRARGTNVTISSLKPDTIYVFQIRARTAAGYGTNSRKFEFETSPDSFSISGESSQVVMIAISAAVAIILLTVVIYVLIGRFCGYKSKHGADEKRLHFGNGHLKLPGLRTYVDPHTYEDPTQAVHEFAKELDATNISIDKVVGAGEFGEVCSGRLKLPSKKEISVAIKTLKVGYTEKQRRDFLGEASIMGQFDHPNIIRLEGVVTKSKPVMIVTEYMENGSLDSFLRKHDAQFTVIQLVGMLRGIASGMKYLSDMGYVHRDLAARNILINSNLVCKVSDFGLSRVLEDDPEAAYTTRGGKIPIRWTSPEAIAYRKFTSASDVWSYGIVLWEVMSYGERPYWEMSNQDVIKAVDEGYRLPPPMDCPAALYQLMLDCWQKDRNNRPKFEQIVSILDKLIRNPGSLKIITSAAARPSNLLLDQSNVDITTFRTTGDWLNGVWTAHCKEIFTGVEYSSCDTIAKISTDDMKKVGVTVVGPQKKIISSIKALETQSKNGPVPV
Sequence of UniProt P06239 (whole entry, looked up): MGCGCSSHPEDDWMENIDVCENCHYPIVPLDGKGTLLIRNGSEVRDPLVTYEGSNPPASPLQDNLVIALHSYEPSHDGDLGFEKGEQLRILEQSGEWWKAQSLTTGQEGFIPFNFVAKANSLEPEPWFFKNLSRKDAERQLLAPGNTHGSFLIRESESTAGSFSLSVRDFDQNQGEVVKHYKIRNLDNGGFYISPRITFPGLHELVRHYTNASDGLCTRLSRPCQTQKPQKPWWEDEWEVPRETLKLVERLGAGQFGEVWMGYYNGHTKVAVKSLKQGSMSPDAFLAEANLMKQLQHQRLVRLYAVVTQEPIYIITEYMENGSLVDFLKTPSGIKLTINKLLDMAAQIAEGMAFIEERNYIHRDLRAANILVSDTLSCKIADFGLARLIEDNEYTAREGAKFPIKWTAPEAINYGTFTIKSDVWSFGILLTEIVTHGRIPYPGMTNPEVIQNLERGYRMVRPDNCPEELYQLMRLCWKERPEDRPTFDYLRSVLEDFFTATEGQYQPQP
Sequence of UniProt Q9HC98 (whole entry, looked up): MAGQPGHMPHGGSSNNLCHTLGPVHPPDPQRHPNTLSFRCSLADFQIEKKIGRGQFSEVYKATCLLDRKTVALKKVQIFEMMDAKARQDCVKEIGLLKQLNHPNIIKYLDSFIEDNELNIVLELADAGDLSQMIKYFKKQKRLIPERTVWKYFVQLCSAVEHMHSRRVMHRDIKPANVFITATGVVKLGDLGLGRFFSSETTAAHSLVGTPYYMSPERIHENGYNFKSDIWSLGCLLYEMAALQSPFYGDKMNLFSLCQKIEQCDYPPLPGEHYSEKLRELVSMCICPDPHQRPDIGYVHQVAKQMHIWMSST

Sample 1
Cell line: mouse MPNST tumor cells
Method: high-content immunofluorescence imaging
Item: nuclear SOX9
Concentration: 10 µM
Time: 12 h
Notes: mean of 2 replicates
Reference: DMSO control
Reading: higher = more nuclear SOX9
Measurement: nuclear SOX9 intensity
O=C(Nc1cc(C(F)(F)F)cc(C(F)(F)F)c1)c1cnc(Cl)nc1C(F)(F)F: 106 % of DMSO
CC(=O)OCC(=O)[C@@]12N=C(C)O[C@@H]1C[C@H]1[C@@H]3CCC4=CC(=O)C=C[C@]4(C)[C@H]3[C@@H](O)C[C@@]12C: 87.8 % of DMSO
COc1ccc(CCc2nc3cc(-c4c(C)noc4C)ccc3n2C[C@H](C)N2CCOCC2)cc1Cl: 119 % of DMSO and 131 % of DMSO
c1ccc(-c2[nH]ncc2-c2ccnc3ccccc23)nc1: 114 % of DMSO

Sample 2
SMILES: CN(C(=O)c1ccccc1)c1cc(N(C)c2ccc3c(c2)CCc2ccc(C(=O)NCCN4CCOCC4)cc2C3=O)ccc1F
Method: competition with immobilised ligand
Concentration: 1 µM
Measurement: remaining binding
MAPK14 (Homo sapiens, UniProt Q16539); cell-free assay: 100%
Tyrosine-protein kinase ABL1, phosphorylated (ABL1, Homo sapiens, UniProt P00519, E255K); binding: 92%
Non-receptor tyrosine-protein kinase TYK2, JH2 (TYK2, Homo sapiens, UniProt P29597); cell-free assay: 100%
STK33 (Homo sapiens, UniProt Q9BYT3); cell-free assay: 81%
TLK1 (Homo sapiens, UniProt Q9UKI8); cell-free assay: 100%
PRKCH (Homo sapiens, UniProt P24723); cell-free assay: 95%
MAPK13 (Homo sapiens, UniProt O15264); cell-free assay: 100%
AKT3 (Homo sapiens, UniProt Q9Y243); cell-free assay: 74%

Sample 3
SMILES: COc1ccc(Cl)cc1NC(=O)Nc1cc(C)nc2ccccc12
Read-out: enzyme activity
Mode: inhibitor
Concentration: 0.5 µM
Reference: control
Measurement: remaining activity
RPS6KA2 (Homo sapiens, UniProt Q15349): 99.8%
EPHA3 (Homo sapiens, UniProt P29320): 99.1%
LCK (Homo sapiens, UniProt P06239): 98.2%
TAOK2 (Homo sapiens, UniProt Q9UL54): 98.2%
MST1R (Homo sapiens, UniProt Q04912): 82.4%
TBK1 (Homo sapiens, UniProt Q9UHD2): 100%
FGFR1 (Homo sapiens, UniProt P11362): 86.1%
CSNK1G2 (Homo sapiens, UniProt P78368): 98.5%
GRK7 (Homo sapiens, UniProt Q8WTQ7): 101%
MAPKAPK2 (Homo sapiens, UniProt P49137): 109%
GSK3B (Homo sapiens, UniProt P49841): 91.6%
MAP3K14 (Homo sapiens, UniProt Q99558): 84.9%
NEK6 (Homo sapiens, UniProt Q9HC98): 97.8%
MAP3K5 (Homo sapiens, UniProt Q99683): 101%

Sample 4
Host: mouse
Medium: microsomes or S9
Concentration: 2 µM
Time: 0.5 h
Measurement: remaining compound
CN(C)CCN1C(=O)C2CC=C(Cl)CC2C1=O (stereo not shown): 86.1%
CC(C)n1[nH]c(=O)c2c1NC(=O)CC2c1cnn(C)c1 (stereo not shown): 32.4%
COn1c(-c2ccc(C(C)(C)C)cc2)cc2cc3cccccc-3c2c1=O: 37.4%
CC1(C)C(=O)Nc2ccc(S(=O)(=O)Nc3noc(-c4ccsc4)n3)cc21: > 100%
CCn1cc(CN(C/C=C/c2ccco2)CC(C)C)cn1: 6.69%

For quick reference, copied from above (sample 3):
NEK6 (Homo sapiens, UniProt Q9HC98): 97.8%
MAP3K5 (Homo sapiens, UniProt Q99683): 101%
